Results gathered from unrelated publications.
Every numbered part comes from another study and shows a few of its results, in no order.
UniProt P23458, sequence (whole entry, looked up): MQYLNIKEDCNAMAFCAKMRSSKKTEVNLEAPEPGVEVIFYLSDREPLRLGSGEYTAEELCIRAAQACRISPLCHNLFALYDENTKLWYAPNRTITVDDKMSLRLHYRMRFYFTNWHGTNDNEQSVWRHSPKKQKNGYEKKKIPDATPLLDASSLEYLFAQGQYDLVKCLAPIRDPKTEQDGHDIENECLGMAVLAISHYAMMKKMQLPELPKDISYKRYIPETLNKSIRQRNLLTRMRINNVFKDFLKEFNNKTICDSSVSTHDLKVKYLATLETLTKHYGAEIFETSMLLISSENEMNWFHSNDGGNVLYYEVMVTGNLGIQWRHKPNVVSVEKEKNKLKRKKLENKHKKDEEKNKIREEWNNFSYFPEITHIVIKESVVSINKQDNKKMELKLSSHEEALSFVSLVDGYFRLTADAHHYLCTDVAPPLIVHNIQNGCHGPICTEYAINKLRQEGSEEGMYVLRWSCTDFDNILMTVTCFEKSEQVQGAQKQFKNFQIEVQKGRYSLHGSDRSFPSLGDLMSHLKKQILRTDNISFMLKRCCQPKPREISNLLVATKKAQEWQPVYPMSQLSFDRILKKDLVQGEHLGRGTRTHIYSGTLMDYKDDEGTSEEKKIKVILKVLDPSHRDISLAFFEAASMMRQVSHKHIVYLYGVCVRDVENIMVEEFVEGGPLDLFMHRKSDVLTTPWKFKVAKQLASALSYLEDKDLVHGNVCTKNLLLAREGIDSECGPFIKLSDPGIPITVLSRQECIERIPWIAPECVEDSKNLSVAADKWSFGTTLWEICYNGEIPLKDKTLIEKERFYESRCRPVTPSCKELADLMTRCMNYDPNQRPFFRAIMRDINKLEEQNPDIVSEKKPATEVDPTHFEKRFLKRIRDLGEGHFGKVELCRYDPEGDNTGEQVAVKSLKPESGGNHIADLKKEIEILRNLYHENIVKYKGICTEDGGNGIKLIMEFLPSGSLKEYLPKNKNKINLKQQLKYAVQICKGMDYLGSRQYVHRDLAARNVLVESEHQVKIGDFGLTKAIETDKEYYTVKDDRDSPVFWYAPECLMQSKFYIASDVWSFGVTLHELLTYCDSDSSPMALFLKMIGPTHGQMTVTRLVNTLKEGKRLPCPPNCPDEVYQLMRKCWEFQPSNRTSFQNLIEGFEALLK
UniProt P07947, sequence (whole entry, looked up): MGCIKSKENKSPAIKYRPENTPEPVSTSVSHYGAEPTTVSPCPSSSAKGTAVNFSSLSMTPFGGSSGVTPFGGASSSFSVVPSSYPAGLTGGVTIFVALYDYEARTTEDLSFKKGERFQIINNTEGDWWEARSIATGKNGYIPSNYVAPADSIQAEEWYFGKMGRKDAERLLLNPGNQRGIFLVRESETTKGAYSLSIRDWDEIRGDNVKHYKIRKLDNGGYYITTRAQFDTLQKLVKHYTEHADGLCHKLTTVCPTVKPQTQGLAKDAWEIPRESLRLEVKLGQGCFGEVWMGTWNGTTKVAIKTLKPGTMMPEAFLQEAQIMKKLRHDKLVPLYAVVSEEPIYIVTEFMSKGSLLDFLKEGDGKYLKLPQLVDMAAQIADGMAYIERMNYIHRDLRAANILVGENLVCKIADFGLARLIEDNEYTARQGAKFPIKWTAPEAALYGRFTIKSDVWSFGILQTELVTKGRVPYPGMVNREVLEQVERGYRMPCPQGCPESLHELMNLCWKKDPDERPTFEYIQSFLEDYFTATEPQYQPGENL
UniProt O96013, sequence (whole entry, looked up): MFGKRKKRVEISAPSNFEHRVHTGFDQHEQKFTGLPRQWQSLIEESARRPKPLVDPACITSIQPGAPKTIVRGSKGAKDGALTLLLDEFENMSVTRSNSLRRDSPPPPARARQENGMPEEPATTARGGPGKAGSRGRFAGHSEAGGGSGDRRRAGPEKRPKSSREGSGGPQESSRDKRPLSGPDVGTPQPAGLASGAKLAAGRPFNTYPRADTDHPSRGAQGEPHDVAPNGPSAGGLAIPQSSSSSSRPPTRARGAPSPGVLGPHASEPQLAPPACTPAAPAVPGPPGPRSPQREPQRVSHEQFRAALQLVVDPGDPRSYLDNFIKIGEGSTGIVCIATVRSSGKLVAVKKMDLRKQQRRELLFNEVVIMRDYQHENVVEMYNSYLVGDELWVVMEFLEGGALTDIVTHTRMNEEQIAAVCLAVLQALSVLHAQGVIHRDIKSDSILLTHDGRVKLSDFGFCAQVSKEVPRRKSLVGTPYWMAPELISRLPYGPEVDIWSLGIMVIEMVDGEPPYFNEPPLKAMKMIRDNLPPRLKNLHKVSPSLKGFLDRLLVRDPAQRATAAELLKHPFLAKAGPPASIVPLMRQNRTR
UniProt O15146, sequence (whole entry, looked up): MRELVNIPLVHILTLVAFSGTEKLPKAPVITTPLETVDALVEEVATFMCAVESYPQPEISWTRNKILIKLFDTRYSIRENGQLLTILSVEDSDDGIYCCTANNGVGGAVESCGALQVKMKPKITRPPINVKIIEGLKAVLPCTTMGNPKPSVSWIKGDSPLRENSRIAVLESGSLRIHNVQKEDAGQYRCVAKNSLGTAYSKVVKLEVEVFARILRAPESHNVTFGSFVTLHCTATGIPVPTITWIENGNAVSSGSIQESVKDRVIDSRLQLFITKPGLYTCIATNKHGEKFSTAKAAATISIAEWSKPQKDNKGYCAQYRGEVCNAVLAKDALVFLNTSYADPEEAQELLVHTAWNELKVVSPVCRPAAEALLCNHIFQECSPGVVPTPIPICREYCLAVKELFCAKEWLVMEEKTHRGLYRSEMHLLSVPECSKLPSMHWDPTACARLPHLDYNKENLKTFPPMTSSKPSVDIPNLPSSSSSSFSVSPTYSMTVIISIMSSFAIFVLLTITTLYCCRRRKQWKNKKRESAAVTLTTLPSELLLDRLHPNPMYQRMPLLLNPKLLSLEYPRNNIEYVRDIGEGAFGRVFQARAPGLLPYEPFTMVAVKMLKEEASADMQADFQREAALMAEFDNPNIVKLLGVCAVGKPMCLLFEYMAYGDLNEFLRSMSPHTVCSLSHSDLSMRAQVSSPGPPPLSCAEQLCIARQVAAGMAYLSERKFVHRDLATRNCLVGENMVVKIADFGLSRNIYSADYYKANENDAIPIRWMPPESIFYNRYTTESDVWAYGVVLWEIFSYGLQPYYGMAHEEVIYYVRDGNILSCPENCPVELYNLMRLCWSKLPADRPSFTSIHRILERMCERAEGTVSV
UniProt Q5BJF2, sequence (whole entry, looked up): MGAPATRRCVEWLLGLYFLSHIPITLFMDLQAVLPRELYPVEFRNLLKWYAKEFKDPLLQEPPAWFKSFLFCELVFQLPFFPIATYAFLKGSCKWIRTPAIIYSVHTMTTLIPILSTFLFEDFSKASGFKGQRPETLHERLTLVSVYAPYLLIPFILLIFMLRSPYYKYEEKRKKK
UniProt P35462, sequence (whole entry, looked up): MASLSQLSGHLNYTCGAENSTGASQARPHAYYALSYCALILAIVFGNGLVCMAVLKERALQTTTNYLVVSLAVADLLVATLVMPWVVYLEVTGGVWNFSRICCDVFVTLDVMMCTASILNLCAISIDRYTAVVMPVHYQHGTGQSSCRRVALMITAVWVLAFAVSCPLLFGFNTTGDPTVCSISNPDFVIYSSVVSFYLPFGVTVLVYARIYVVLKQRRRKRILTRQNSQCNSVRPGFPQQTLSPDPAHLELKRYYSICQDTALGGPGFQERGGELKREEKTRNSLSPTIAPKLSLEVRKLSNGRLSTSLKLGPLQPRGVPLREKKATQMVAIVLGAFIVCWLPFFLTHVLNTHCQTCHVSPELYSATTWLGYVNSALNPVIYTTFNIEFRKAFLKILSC

Set 1
SMILES: COc1cc2ncc(-c3ccccc3)nc2cc1OC
Read-out: enzyme activity
Action: inhibitor
Tested at: 0.5 µM
Relative to: control
Measurement: remaining activity
Maternal embryonic leucine zipper kinase (MELK, Homo sapiens, UniProt Q14680): 88.9%
Dual specificity protein kinase CLK2 (CLK2, Homo sapiens, UniProt P49760): 87.4%
Vascular endothelial growth factor receptor 1 (FLT1, Homo sapiens, UniProt P17948): 85%
Tyrosine-protein kinase Yes (YES1, Homo sapiens, UniProt P07947): 96.1%
Protein kinase C zeta type (PRKCZ, Homo sapiens, UniProt Q05513): 96.3%
Serine/threonine-protein kinase pim-1 (PIM1, Homo sapiens, UniProt P11309): 95.9%
Tyrosine-protein kinase Tec (TEC, Homo sapiens, UniProt P42680): 164%
Serine/threonine-protein kinase PAK 6 (PAK6, Homo sapiens, UniProt Q9NQU5): 82.8%
Tyrosine-protein kinase JAK2 (JAK2, Homo sapiens, UniProt O60674): 94.4%
Tyrosine-protein kinase JAK1 (JAK1, Homo sapiens, UniProt P23458): 91.5%
Serine/threonine-protein kinase PAK 5 (PAK5, Homo sapiens, UniProt Q9P286): 85.6%
Serine/threonine-protein kinase PAK 4 (PAK4, Homo sapiens, UniProt O96013): 75.9%
Serine/threonine-protein kinase SIK2 (SIK2, Homo sapiens, UniProt Q9H0K1): 93.1%
Muscle, skeletal receptor tyrosine-protein kinase (MUSK, Homo sapiens, UniProt O15146): 95.9%

Set 2
Target: Sal-like protein 4, full length isoform A (SALL4, Homo sapiens, UniProt Q9UJQ4, residues 1-1053)
UniProt Q9UJQ4, sequence (whole entry, looked up): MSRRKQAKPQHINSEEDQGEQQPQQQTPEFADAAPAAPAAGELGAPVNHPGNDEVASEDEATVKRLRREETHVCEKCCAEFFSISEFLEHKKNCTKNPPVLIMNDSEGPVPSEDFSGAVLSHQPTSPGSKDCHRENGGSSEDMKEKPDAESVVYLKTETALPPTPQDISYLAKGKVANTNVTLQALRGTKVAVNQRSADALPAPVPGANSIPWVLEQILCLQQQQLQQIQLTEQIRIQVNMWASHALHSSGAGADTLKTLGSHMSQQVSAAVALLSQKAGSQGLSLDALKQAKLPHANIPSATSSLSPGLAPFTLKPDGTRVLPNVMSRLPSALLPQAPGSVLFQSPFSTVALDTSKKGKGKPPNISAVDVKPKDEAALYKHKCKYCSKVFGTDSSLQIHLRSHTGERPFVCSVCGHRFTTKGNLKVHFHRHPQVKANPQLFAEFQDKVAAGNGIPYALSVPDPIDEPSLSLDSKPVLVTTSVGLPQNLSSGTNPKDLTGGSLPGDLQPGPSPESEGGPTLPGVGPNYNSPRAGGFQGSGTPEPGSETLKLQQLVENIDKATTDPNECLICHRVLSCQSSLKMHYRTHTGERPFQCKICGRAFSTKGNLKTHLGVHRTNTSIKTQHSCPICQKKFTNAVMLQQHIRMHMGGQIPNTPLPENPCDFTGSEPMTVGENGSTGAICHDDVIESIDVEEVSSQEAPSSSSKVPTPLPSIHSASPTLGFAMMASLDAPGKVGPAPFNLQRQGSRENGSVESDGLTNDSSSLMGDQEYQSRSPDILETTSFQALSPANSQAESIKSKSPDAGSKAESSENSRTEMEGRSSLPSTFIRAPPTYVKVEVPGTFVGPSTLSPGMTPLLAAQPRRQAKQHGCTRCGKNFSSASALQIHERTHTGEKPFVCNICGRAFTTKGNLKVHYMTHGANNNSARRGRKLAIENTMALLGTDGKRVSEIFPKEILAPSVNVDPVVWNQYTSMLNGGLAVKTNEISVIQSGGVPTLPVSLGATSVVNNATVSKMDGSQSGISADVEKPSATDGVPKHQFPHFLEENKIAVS
Technique: universal PBM
Molecule type: double-stranded DNA, one strand shown
Medium: in vitro
Tested at: 600 nM
Setting: 8-mer, flanks averaged, mean of replicates
Reading: higher = stronger binding
Measurement: E-score
GGAACGCA: -0.289
GCAGCCGC: -0.268
AGGATATC: 0.0148
CTAGCTCA: -0.125
AATAAAGA: 0.277
CAAGTGCC: -0.205
ACTCCACC: -0.0466
CTGAATAA: 0.208

Set 3
SMILES: Cc1cc(NC(=O)c2cccc(S(F)(F)(F)(F)F)c2)cc(-n2ccn3nc(-c4cccnc4)cc23)c1
Read-out: ligand displacement
Technique: radioligand
Tested at: 10 µM
Measurement: inhibition
Sigma intracellular receptor 2 (TMEM97, Homo sapiens, UniProt Q5BJF2): 34.6%
Muscarinic acetylcholine receptor M2 (CHRM2, Homo sapiens, UniProt P08172): -1.26%
D(3) dopamine receptor (DRD3, Homo sapiens, UniProt P35462): -7.82%
Sigma non-opioid intracellular receptor 1 (SIGMAR1, Homo sapiens, UniProt Q99720): 24.3%
D(4) dopamine receptor (DRD4, Homo sapiens, UniProt P21917): -3.84%
Histamine H1 receptor (HRH1, Homo sapiens, UniProt P35367): 4.94%
Alpha-1A adrenergic receptor (ADRA1A, Homo sapiens, UniProt P35348): 1.88%

Other studies, line by line
CCOC(=O)[C@@H]1CSCC(=O)N[C@@H](CC)C(=O)N(C)[C@@H](C)C(=O)N[C@@H](CC(C)C)C(=O)N2CCC[C@@H]2C(=O)N(CC(C)C)CC(=O)N[C@H](CC(C)C)C(=O)N(C)[C@@H](C)C(=O)N[C@@H](CC(C)C)C(=O)N1C
logD (hydrocarbon/water): 1.19

Some of these lines once more (set 2):
AATAAAGA: 0.277
CAAGTGCC: -0.205
